{"data": "Results pooled from the literature", "organism": "Escherichia coli", "note": "Protocols differ between the studies behind these lines. ± gives the spread as reported."}
{"SMILES": "COc1ccc2nc(C)cc(OCC(=O)Nc3cc(C)cc(C)c3)c2c1", "test": "broth microdilution", "system": "3", "MIC": "> 64 µM"}
{"SMILES": "CC(C)[C@@H]1NC(=O)[C@@H]2CCCN2C(=O)[C@@H](C)NC(=O)[C@H](CO)NC(=O)[C@H](C)NC(=O)[C@H](C(C)(C)C)NC(=O)[C@H](CCO)NC(=O)[C@H](Cc2c[nH]c3ccccc23)NC(=O)[C@H](CCO)NC(=O)[C@@H](CCN)NC(=O)[C@H](CCC(N)=O)NC(=O)[C@H](CCN)NC(=O)[C@H](Cc2ccc(O)cc2)NC(=O)[C@H]([C@@H](C)O)NC1=O", "test": "broth microdilution", "system": "mcr-1, colistin-resistant, CAMHB with 0.002% polysorbate-80", "conditions": "16 h, 37 °C", "MIC": "> 64 µg/mL"}
{"SMILES": "CC[C@@H](C)[C@@H](NC(=O)[C@@H](C)NC(=O)[C@@H](CCCCN)NC(=O)[C@@H](CC(C)C)NC(=O)[C@@H](C)NC(=O)[C@H](NC(=O)[C@@H](Cc1c[nH]cn1)NC(=O)[C@@H](CC(C)C)NC(=O)[C@H](NC(=O)[C@H](NC(=O)[C@@H](CCCCN)NC(=O)[C@@H](CCCCN)NC(=O)[C@@H](C)NC(=O)[C@@H](CO)NC(=O)[C@@H](CCCCN)NC(=O)[C@@H](Cc1ccccc1)NC(=O)[C@H](NC(=O)[C@@H](CCCCN)NC(=O)[C@@H](CC(C)C)NC(=O)[C@@H](Cc1ccccc1)NC(=O)[C@@H](CO)NC(=O)[C@@H](CCCCN)NC(=O)[C@@H](Cc1c[nH]c2ccccc12)NC(=O)[C@@H](CCCCN)NC(C)=O)[C@H](C)O)[C@H](C)O)C(C)C)[C@H](C)O)C(=O)N[C@H](CO)C(=O)N[C@H](CO)C(N)=O", "system": "UB1005", "conditions": "24 h, 37 °C", "MIC": "4 µg/mL"}
{"SMILES": "CCCCCCCCCCCCCC(=O)NCCCC[C@H](N)C(=O)N[C@@H](CCCCN)C(=O)N[C@@H](CCCCN)C(=O)N[C@@H](CCCCN)C(=O)N[C@@H](CCCCN)C(=O)N[C@@H](CCCCN)C(N)=O", "test": "broth microdilution", "system": "K12, water pH 7", "conditions": "18 h, 37 °C", "MIC": "32 µg/mL"}
{"SMILES": "OB(O)c1cnn(-c2cc(Cl)ncn2)c1", "test": "bacterial growth", "system": "TEM-3 ESBL clinical isolate", "conditions": "cefotaxime alone", "MIC": "1 µg/mL"}
{"SMILES": "Cc1cc(N)c2cc(NC(=O)c3ccc4cc(C5CC5)ccc4c3)ccc2n1", "system": "hyperporinated ΔtolC", "MIC": "100 µM"}
{"SMILES": "CC[C@H](C)[C@H](N)C1=N[C@H](C(=O)N[C@@H](CC(C)C)C(=O)N[C@H](CCC(=O)O)C(=O)N[C@@H](Cc2ccccc2)C(=O)N[C@H]2CCCCNC(=O)[C@H](CC(N)=O)NC(=O)[C@@H](CC(=O)O)NC(=O)[C@H](Cc3c[nH]cn3)NC(=O)[C@@H](Cc3ccccc3)NC(=O)[C@H]([C@@H](C)CC)NC(=O)[C@@H](CCCN)NC2=O)CS1", "test": "broth microdilution", "system": "ATCC 25922, LB medium", "conditions": "18 h, 37 °C, together with: ZnSO4 0.3 mM", "MIC": "> 64 µg/mL"}
{"SMILES": "CC[C@H](C)[C@H](NC(=O)[C@H](C)NC(=O)[C@H](C)NC(=O)[C@H](Cc1ccccc1)NC(=O)[C@H](C)NC(=O)CNC(=O)[C@H](Cc1ccccc1)NC(=O)[C@@H](N)Cc1ccccc1)C(=O)N[C@@H](C)C(=O)N[C@@H](CO)C(=O)N[C@@H](CC(C)C)C(=O)N[C@H](C(=O)N[C@H](C(=O)N1CCC[C@H]1C(=O)N[C@@H](CCCCN)C(=O)N[C@@H](CC(C)C)C(=O)N[C@H](C(=O)N[C@@H](CCC(=O)O)C(=O)N[C@@H](CCCCN)C(=O)N[C@H](C(=O)N[C@@H](CCCCN)C(=O)N[C@@H](CCC(N)=O)C(=O)N[C@@H](C)C(=O)N[C@@H](CCCNC(=N)N)C(N)=O)[C@@H](C)CC)[C@@H](C)CC)[C@@H](C)CC)C(C)C", "system": "ATCC 35218, MHC medium with bicarbonate", "MIC": "> 50 µM"}
{"SMILES": "Cc1cc(N)c2cc(NC(=O)c3ccc4c(-c5ccccc5O)cccc4c3)ccc2n1", "system": "hyperporinated wild type", "MIC": "25 µM"}
{"SMILES": "CCCCCCCCCCCCCCCCCC(=O)N[C@H](C(=O)N[C@H](C(=O)N[C@H](C(=O)N[C@@H](CCCCN)C(=O)N[C@@H](CCCCN)C(=O)N[C@@H](CCCCN)C(=O)N[C@@H](CCCCN)C(=O)N[C@@H](CCCCN)C(N)=O)C(C)C)C(C)C)C(C)C", "test": "broth microdilution", "system": "K12", "conditions": "16-24 h, 37 °C, prepared at pH 7", "MIC": "> 32 µg/mL"}
{"SMILES": "CCO[C@H]1[C@H](O)[C@@H](N)[C@@H](O[C@H]2[C@H](O[C@@H]3O[C@H](CO)[C@@H](O[C@H]4O[C@@H](CN)[C@@H](O)[C@H](O)[C@H]4N)[C@H]3O)[C@@H](O)[C@H](N)C[C@@H]2N)O[C@@H]1CO", "test": "broth microdilution", "system": "clinical isolate AG 003", "MIC": "32 µg/mL"}
{"SMILES": "CC(C)C[C@H](NC(=O)[C@H](Cc1ccc(O)cc1)NC(=O)[C@@H]1CCCN1C(=O)[C@H](CCCNC(=N)N)NC(=O)[C@@H]1CCCN1C(=O)[C@H](CCCCN)NC(=O)[C@H](CC(=O)O)NC(=O)[C@@H]1CCCN1C(=O)[C@H](CCCNC(=N)N)NC(=O)C1(N)CCCCC1)C(=O)N1CCC[C@H]1C(=O)N[C@@H](CCCNC(=N)N)C(=O)N1CCC[C@H]1C(=O)N[C@@H](CCCNC(=N)N)C(=O)N1CCC[C@H]1C(=O)N1CCC[C@H]1C(=O)N[C@@H](CCCNC(=N)N)C(=O)N1CCC[C@H]1C(=O)N[C@H](C(=O)N[C@@H](CCCNC(=N)N)C(=O)N[C@@H](CSc1c(F)c(F)c(SC[C@H](NC(=O)[C@H](CCCNC(=N)N)NC(=O)[C@@H](NC(=O)[C@@H]2CCCN2C(=O)[C@H](CCCNC(=N)N)NC(=O)[C@@H]2CCCN2C(=O)[C@@H]2CCCN2C(=O)[C@H](CCCNC(=N)N)NC(=O)[C@@H]2CCCN2C(=O)[C@H](CCCNC(=N)N)NC(=O)[C@@H]2CCCN2C(=O)[C@H](CC(C)C)NC(=O)[C@H](Cc2ccc(O)cc2)NC(=O)[C@@H]2CCCN2C(=O)[C@H](CCCNC(=N)N)NC(=O)[C@@H]2CCCN2C(=O)[C@H](CCCCN)NC(=O)[C@H](CC(=O)O)NC(=O)[C@@H]2CCCN2C(=O)[C@H](CCCNC(=N)N)NC(=O)C2(N)CCCCC2)C(C)C)C(=O)NN)c(F)c1F)C(=O)NN)C(C)C", "test": "bacterial growth", "system": "ATCC 25922, 100% Mueller-Hinton broth", "conditions": "90 min, 37 °C, strain ATCC 25922", "MIC": "6.7 ± 0.9 µg/mL"}
{"SMILES": "CC[C@H](C)[C@H](NC(=O)[C@@H](Cc1ccccc1)NC)C(=O)OC[C@H](N)C(=O)N[C@H](CCCNC(=N)N)C(=O)N[C@@H](C(=O)N[C@H](C(=O)OC[C@H](N)C(=O)N[C@H]1C(=O)N[C@@H](C)C(=O)N[C@@H](C2CCCCC2)C(=O)N[C@@H]([C@@H](C)CC)C(=O)O[C@H]1C)[C@@H](C)CC)[C@@H](C)CC", "test": "broth microdilution", "system": "ATCC 10798, Mueller-Hinton broth", "conditions": "16 h, 37 °C", "MIC": "> 8 µg/mL"}
{"SMILES": "CCOC(=O)c1cnc(N2CC[C@@H](NC(=O)c3[nH]c(C)c(Cl)c3Cl)[C@@H](OC)C2)o1", "system": "ATCC 25922", "MIC": "> 128 µg/mL"}
{"SMILES": "CC(C)C[C@@H]1NC(=O)[C@H](C)NC(=O)[C@H](NC(=O)[C@H](CO)NC(=O)[C@@H](CCCCN)NC(=O)[C@@H](CC(C)C)NC(=O)[C@@H](N)Cc2ccccc2)[C@H](C)OC(=O)[C@H](CC(C)C)NC1=O", "system": "ATCC 10798", "conditions": "TFA salt", "MIC": "> 32 µg/mL"}
{"SMILES": "C[C@@H](N)[C@H](O)CCCCCCCC(=O)CCCCCCCCCCCCCC[C@@H](O[C@@H]1O[C@H](CO)[C@H](O)[C@H](O)[C@H]1O)[C@H](N)CO", "test": "microbial growth, resazurin", "system": "ATCC10536", "conditions": "6 h", "MIC": "22.8 µM"}
{"SMILES": "CCCCCCSCC1OC(OC2C(N)CC(N)C(OC3OC(CN)C(O)CC3N)C2O)C(O)C(N)C1O (centres unmarked)", "system": "BL21(DE3) AAC(3)-IV", "MIC": "> 150 µg/mL"}
{"SMILES": "CC[C@H](C)[C@H](NC(=O)[C@@H](NC(=O)[C@H](CCCCN)NC(=O)CNC(=O)[C@@H](NC(=O)[C@@H](NC(=O)[C@H](CO)NC(=O)[C@@H](NC(=O)[C@@H](NC(=O)[C@@H]1CCCN1C(=O)[C@@H](NC(=O)[C@@H](NC(=O)CN)[C@@H](C)CC)[C@@H](C)CC)[C@@H](C)CC)[C@@H](C)CC)[C@@H](C)CC)[C@@H](C)CC)[C@@H](C)CC)C(N)=O", "test": "broth microdilution", "system": "K12", "MIC": "> 34 µM"}
{"SMILES": "CC[C@H](C)[C@H](NC(=O)[C@H](CCC(=O)O)NC(=O)[C@H](CO)NC(=O)[C@H](CCCNC(=N)N)NC(=O)[C@@H](N)CO)C(=O)N[C@H](C(=O)N[C@@H](Cc1c[nH]cn1)C(=O)N[C@@H](CCC(N)=O)C(=O)N[C@@H](CCCNC(=N)N)C(=O)N[C@@H](CC(C)C)C(=O)N[C@@H](Cc1ccccc1)C(N)=O)C(C)C", "test": "broth microdilution", "system": "Mueller Hinton broth", "MIC": "> 400 µg/mL"}
{"SMILES": "CCCCCCCCCCCCCCCCCCCCCCSCC1OC(OC2C(N)CC(N)C(OC3OC(CN)C(O)CC3N)C2O)C(O)C(N)C1O (centres unmarked)", "system": "BL21(DE3) pET22b", "MIC": "> 150 µg/mL"}
{"note": "Excerpt of the above:"}
{"SMILES": "CC[C@H](C)[C@H](NC(=O)[C@@H](NC(=O)[C@H](CCCCN)NC(=O)CNC(=O)[C@@H](NC(=O)[C@@H](NC(=O)[C@H](CO)NC(=O)[C@@H](NC(=O)[C@@H](NC(=O)[C@@H]1CCCN1C(=O)[C@@H](NC(=O)[C@@H](NC(=O)CN)[C@@H](C)CC)[C@@H](C)CC)[C@@H](C)CC)[C@@H](C)CC)[C@@H](C)CC)[C@@H](C)CC)[C@@H](C)CC)C(N)=O", "test": "broth microdilution", "system": "K12", "MIC": "> 34 µM"}
